# Published values from different studies.
# Compare with care: the assays were run in different laboratories. “And” joins repeats or separate records; there may be more than shown. ± marks the error that the study gave.
# CHRM2: Muscarinic acetylcholine receptor M2 (CHRM2, Homo sapiens, UniProt P08172)
# UniProt P08172, sequence (whole entry, looked up): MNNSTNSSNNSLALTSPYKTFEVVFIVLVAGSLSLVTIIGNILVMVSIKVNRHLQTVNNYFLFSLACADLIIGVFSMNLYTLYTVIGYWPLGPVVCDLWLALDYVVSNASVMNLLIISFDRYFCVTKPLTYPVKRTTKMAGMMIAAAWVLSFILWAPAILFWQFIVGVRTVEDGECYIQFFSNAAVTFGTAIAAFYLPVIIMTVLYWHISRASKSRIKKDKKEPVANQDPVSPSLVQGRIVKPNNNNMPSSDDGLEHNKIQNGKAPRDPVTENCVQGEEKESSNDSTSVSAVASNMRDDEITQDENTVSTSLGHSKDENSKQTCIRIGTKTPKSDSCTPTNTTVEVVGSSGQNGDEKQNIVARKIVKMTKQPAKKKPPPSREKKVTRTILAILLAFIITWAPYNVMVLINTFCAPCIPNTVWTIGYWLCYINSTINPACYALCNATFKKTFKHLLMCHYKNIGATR
# MYC: Myc proto-oncogene protein (MYC, Homo sapiens, UniProt P01106)
# UniProt P01106, sequence (whole entry, looked up): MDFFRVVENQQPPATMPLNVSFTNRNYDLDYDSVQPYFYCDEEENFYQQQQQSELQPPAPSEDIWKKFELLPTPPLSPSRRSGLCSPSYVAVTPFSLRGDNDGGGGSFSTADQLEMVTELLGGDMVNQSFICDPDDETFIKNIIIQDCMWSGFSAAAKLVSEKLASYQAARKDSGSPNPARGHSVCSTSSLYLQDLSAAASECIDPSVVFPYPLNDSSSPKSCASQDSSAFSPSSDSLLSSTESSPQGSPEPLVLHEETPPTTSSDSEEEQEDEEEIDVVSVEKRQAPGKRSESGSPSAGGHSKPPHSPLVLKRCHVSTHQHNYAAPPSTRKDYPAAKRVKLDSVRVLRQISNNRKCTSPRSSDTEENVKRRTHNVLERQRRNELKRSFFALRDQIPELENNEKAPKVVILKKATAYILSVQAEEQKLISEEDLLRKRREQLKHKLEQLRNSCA
# UniProt P63086, sequence (whole entry, looked up): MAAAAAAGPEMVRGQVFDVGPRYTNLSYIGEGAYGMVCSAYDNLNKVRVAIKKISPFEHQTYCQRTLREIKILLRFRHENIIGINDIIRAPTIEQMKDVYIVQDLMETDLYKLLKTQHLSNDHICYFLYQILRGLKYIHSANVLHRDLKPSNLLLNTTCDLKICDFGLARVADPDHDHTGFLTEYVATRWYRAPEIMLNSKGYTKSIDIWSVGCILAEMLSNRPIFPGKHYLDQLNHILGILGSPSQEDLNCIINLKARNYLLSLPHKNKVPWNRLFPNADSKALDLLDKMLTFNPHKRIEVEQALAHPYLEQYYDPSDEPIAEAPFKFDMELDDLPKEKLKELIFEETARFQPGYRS
# UniProt Q96SW2, sequence (whole entry, looked up): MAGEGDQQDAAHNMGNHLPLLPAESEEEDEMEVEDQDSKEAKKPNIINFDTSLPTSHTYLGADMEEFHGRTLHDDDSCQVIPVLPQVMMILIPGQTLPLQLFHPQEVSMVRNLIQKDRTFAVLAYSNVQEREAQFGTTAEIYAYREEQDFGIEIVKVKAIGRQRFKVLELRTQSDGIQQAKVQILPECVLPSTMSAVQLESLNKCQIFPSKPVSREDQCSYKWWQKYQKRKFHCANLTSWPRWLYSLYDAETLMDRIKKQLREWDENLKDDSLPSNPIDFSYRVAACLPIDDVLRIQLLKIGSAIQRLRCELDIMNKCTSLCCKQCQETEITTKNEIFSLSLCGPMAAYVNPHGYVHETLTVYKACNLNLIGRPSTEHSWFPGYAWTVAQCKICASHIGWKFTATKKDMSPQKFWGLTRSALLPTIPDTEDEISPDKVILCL
# UniProt P18206, sequence (whole entry, looked up): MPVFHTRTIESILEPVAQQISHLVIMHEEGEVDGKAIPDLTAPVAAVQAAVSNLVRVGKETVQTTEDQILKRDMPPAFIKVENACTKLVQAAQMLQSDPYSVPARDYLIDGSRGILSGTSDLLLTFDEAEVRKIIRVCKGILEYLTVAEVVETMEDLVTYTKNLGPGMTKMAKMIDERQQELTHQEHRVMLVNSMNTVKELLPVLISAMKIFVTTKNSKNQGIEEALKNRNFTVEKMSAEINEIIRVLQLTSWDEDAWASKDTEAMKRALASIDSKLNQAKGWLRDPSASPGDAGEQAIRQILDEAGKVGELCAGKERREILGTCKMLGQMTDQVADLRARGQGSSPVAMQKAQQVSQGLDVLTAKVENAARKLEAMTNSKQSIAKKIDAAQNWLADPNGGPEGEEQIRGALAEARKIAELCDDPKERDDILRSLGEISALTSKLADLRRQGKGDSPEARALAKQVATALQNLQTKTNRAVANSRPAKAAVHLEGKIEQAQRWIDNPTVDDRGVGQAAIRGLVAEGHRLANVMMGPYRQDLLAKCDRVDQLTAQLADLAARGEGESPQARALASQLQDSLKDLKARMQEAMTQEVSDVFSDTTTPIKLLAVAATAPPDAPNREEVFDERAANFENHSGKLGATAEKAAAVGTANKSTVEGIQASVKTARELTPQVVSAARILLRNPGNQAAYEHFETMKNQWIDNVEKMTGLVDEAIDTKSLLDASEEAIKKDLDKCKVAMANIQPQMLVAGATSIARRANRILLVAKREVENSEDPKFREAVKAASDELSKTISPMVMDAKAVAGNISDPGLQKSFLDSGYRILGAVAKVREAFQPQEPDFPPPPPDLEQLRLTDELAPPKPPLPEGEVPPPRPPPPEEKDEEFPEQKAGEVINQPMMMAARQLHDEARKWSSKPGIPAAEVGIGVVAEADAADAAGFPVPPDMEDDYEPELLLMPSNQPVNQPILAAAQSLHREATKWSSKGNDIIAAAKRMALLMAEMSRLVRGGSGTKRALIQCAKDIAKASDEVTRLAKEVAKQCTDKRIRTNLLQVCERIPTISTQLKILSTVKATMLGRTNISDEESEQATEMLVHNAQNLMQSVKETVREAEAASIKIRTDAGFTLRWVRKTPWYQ
# UniProt P16050, sequence (whole entry, looked up): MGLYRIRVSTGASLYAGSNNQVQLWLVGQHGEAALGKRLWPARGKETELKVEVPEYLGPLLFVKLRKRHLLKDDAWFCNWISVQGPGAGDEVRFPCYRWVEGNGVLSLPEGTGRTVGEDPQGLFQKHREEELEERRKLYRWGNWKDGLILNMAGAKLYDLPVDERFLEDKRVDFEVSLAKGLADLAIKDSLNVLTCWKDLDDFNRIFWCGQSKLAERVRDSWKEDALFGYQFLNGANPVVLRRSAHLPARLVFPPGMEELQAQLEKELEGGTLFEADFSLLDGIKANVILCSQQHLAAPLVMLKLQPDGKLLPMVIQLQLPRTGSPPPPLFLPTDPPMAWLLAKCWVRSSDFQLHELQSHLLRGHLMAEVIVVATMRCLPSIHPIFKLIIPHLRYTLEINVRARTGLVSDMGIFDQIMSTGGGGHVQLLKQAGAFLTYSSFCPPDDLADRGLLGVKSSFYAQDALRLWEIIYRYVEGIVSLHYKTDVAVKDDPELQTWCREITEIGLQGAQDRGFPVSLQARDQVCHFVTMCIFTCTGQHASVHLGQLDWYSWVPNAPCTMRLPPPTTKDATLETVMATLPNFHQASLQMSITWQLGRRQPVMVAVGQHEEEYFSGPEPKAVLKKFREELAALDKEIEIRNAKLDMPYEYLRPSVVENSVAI
# UniProt O00519, sequence (whole entry, looked up): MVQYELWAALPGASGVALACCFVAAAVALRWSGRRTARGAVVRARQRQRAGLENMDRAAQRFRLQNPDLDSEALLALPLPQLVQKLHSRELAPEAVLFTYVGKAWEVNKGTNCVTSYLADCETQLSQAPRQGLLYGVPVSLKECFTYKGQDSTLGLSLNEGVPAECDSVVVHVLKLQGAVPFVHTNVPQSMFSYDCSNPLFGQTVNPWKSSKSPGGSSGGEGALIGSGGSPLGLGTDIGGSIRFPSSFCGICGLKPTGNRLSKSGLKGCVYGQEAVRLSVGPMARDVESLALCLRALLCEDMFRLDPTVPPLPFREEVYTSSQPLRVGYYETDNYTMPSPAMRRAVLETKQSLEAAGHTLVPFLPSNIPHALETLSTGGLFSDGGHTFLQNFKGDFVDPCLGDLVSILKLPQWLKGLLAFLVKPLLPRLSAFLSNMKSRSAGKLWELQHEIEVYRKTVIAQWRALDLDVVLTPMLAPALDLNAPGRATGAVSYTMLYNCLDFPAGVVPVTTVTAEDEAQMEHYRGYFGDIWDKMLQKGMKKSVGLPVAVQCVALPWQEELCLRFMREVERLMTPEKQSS
# UniProt P35414, sequence (whole entry, unmodified, looked up): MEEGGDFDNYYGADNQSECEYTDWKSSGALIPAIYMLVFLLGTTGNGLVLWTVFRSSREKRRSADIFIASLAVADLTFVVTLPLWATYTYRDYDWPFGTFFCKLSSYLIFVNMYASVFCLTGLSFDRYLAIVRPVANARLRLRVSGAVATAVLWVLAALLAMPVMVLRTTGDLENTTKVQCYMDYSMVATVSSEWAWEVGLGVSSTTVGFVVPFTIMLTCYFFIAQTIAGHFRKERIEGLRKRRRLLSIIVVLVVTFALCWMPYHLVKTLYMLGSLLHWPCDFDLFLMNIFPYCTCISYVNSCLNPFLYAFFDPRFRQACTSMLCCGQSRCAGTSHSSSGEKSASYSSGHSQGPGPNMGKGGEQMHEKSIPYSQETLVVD
# UniProt Q16719, sequence (whole entry, looked up): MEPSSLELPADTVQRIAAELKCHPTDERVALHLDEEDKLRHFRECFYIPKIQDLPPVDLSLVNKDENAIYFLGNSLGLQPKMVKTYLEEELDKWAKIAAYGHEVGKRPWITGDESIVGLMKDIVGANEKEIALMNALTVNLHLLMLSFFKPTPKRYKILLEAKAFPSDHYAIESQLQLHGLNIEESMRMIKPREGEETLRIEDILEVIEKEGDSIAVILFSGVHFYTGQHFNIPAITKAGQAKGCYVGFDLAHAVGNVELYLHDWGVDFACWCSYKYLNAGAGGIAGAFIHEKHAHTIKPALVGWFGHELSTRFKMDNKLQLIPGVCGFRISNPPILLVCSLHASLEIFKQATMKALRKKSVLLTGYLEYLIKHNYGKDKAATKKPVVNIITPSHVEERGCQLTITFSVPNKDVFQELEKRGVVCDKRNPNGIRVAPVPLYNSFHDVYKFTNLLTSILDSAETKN
SMILES,target or system,test,system,setting,quantity,value
CN(C)CCNC(=O)c1cccc2c(NCCCCc3c(N)nc(N)nc3N)c3ccccc3nc12,RNA with G–G mismatch,"binding, ITC",,"25 °C, 1",Kd,103000 nM and > 100000 nM
CSCC[C@H](NC(=O)[C@@H]1CCCN1C(=O)CNC(=O)[C@H](CCCCN)NC(=O)[C@H](Cc1c[nH]cn1)NC(=O)[C@H](CO)NC(=O)[C@H](CC(C)C)NC(=O)[C@H](CCCNC(=N)N)NC(=O)[C@@H]1CCCN1C(=O)[C@H](CCCNC(=N)N)NC(=O)[C@H](CCC(N)=O)NC(=O)[C@H](CCCNC(=N)N)NC(=O)[C@H](CCCNC(=N)N)NC(=O)[C@H](Cc1ccccc1)NC(=O)[C@H](CCCCN)NC(=O)[C@H](CCCNC(=N)N)NC(=O)[C@H](CCCNC(=N)N)NC(=O)CNC(=O)CNC(=O)[C@H](CCC(N)=O)NC(=O)[C@H](Cc1c[nH]c2ccccc12)NC(=O)[C@@H]1CCCN1C(=O)CNC(=O)[C@@H]1CCCN1C(=O)CNC(=O)[C@H](CC(N)=O)NC(=O)[C@H](CCCNC(=N)N)NC(=O)[C@H](CO)NC(=O)CNC(=O)[C@H](CCCNC(=N)N)NC(=O)[C@@H]1CCCN1C(=O)[C@H](CCC(N)=O)NC(=O)[C@@H](NC(=O)[C@@H](N)CC(C)C)C(C)C)C(=O)N1CCC[C@H]1C(=O)N[C@@H](Cc1ccccc1)C(=O)O,"Apelin receptor (APLNR, Homo sapiens, UniProt P35414, S339A)","β-arrestin-1 recruitment, agonist, BRET",HEK293,15 min,EC50,9.72 ± 0.85 nM
CN(C)CCCSC(=S)N1CCN(C(=O)/C=C/c2coc3ccccc3c2=O)CC1,tomato spotted wilt virus,"virus inactivation, half-leaf method",Nicotiana glutinosa,tested 31.25 to 500 µg/mL,EC50,65.3 ± 7.2 µg/mL
CN1CCC=C(c2nsnc2OCCCN2CCN(CCCCC3CCN(CC(=O)N4c5ccccc5NC(=O)c5ccccc54)CC3)CC2)C1,CHRM2,"inositol phosphate, antagonist",,,Kb,21.4 nM
O=C1CCC(c2ccc3c(c2)CN(S(=O)(=O)c2ccc(C4CCCCC4)cc2)C3)C(=O)N1 (stereo not shown),"VCL/CRBN, with vinculin (Homo sapiens, UniProt P18206+Q96SW2)",degrader,human cells,,DC50,255 nM
CC(=O)N[C@@H](Cc1ccccc1)C(=O)N[C@@H](CCC(N)=O)C(=O)N[C@@H](CCCNC(=N)N)C(=O)N[C@@H](CCCCN)C(=O)N[C@H](C(=O)N[C@@H](CC(C)C)C(=O)N[C@@H](CCC(N)=O)C(=O)N[C@@H](CCCNC(=N)N)C(=O)N[C@@H](CCCNC(=N)N)C(=O)N[C@@H](CC(N)=O)C(=O)N[C@@H](CC(C)C)C(=O)N[C@@H](CCCCN)C(=O)NCC(=O)N[C@@H](CC(C)C)C(=O)N[C@@H](CC(N)=O)C(=O)N[C@@H](CC(C)C)C(=O)N[C@@H](CC(N)=O)C(=O)N[C@@H](CC(C)C)C(=O)NCCCCCC(=O)NCCCCCC(=O)NCCCCCC(=O)N[C@H](C(=O)NCC(=O)N1CCC[C@H]1C(=O)N[C@@H](CC(C)C)C(=O)N[C@@H](CO)C(=O)N1CCC[C@H]1C(=O)NCC(=O)N1CCC[C@H]1C(=O)N[C@@H](Cc1ccccc1)C(N)=O)[C@@H](C)O)[C@@H](C)O,"Mapk1 (Rattus norvegicus, UniProt P63086)",kinase activity,,"pH 7.4, 27 °C, added: peptide substrate",Ki,2400 ± 1000 nM
CCC(=O)NCc1cc(C(=O)NCCN2CCC(N3CCC(n4c(=O)[nH]c5ccccc54)CC3)CC2)cc(C(=O)NCCN2CCN(CCCCC3CCN(CC(=O)N4c5ccccc5NC(=O)c5ccccc54)CC3)CC2)c1,CHRM2,"inositol phosphate, antagonist",,,Kb,11.7 nM
Cc1ncsc1-c1ccc(C2(NC(=O)C3CC(O)CN3C(=O)C(NC(=O)c3ccc(COc4c(-c5c(C)c(F)cc6[nH]ncc56)c(C5CC5)cc5c(N6CC7CC6CN7)nc(OC6CCOCC6)nc45)cc3)C(C)(C)C)CC2)cc1 (stereo not shown),"GTPase KRas (KRAS, Homo sapiens, UniProt P01116, G12D)","degrader, In-Cell ELISA",AsPC-1,24 h,DC50,682 nM
CCCCOc1ccc(C(=O)OCCN2CC=CCC2)cc1,CHRM2,"inositol phosphate accumulation, antagonist, Schild analysis",CHO co-expressing G15,added: carbachol,Kb,11700 nM
COc1cccc(C(=O)CC(N)C(=O)O)c1 (stereo not shown),"Kynureninase (Homo sapiens, UniProt Q16719)","enzyme activity, inhibitor",,,Ki,15000 nM
O=C(/C=C/c1ccc(Cl)cc1)c1ccccc1,"cathepsin L (Capra hircus, UniProt A0A452FFI6)","enzyme activity, competitive inhibitor",goat liver enzyme,"pH 6.0, added: Z-Phe-Arg-4-methoxy-β-naphthylamide",Ki,12.5 ± 0.08 nM
COc1ccc2occ(/C=C/C(=O)N3CCN(C(=S)SCCCN(C)C)CC3)c(=O)c2c1,tomato spotted wilt virus,"virus inactivation, half-leaf method",Nicotiana glutinosa,tested 31.25 to 500 µg/mL,EC50,78.5 ± 6.7 µg/mL
CCCC(NC(=O)C(C#N)=Cc1nc(Cl)ccc1Cl)c1ccc(OCCN2CCOCC2)cc1 (stereo not shown),MYC,"degrader, western blot",Ramos,8 h,DC50,~5000 nM
O=c1[nH]cnc2c(CNC(CO)COP(=O)(O)O)c[nH]c12 (racemic),"Uncharacterized protein (Trypanosoma cruzi, UniProt Q4DRC3)","IMP formation, uncompetitive inhibitor",,"pH 8.3, 37 °C, added: hypoxanthine 120 µM, PRPP 1 mM",Ki,35000 ± 3000 nM
COc1ccc(CCCN[C@@H]2CCC[C@H]2CN[C@H]2CCC[C@@H]2CNCCCCN[C@H]2CCC[C@@H]2CN)cc1,"KDM1A (Homo sapiens, UniProt O60341)","enzyme activity, inhibitor",,,Ki,3800 nM
CN1CCN(CC(=O)N2N=C3/C(=C/c4ccccc4)CCCC3C2c2ccccc2)CC1 (mixture of isomers),"ALOX15 (Homo sapiens, UniProt P16050)","enzyme activity, activator",,,AC50,> 100000 nM
CCCCOc1ccc(C(=O)OCC[N+]2(C)CC=CCC2)cc1 (stereo not shown),CHRM2,"inositol phosphate accumulation, antagonist, Schild analysis",CHO co-expressing G15,added: carbachol,Kb,1550 nM
O=C(Nc1ccc(C(F)(F)F)nc1)N1CCC(Cc2cccc(Oc3ccc(C(F)(F)F)cn3)c2)CC1,"FAAH (Homo sapiens, UniProt O00519)","enzyme activity, inhibitor",,,Ki,14 nM
Cc1ccc(-n2nnnc2[S+]([O-])Cc2c(F)cccc2Cl)cc1Cl (stereo not shown),MYC,"degrader, western blot",Ramos,8 h,DC50,~5000 nM

# Some of these lines once more:
SMILES,target or system,test,system,setting,quantity,value
Cc1ncsc1-c1ccc(C2(NC(=O)C3CC(O)CN3C(=O)C(NC(=O)c3ccc(COc4c(-c5c(C)c(F)cc6[nH]ncc56)c(C5CC5)cc5c(N6CC7CC6CN7)nc(OC6CCOCC6)nc45)cc3)C(C)(C)C)CC2)cc1 (stereo not shown),"GTPase KRas (KRAS, Homo sapiens, UniProt P01116, G12D)","degrader, In-Cell ELISA",AsPC-1,24 h,DC50,682 nM
CN(C)CCCSC(=S)N1CCN(C(=O)/C=C/c2coc3ccccc3c2=O)CC1,tomato spotted wilt virus,"virus inactivation, half-leaf method",Nicotiana glutinosa,tested 31.25 to 500 µg/mL,EC50,65.3 ± 7.2 µg/mL
CC(=O)N[C@@H](Cc1ccccc1)C(=O)N[C@@H](CCC(N)=O)C(=O)N[C@@H](CCCNC(=N)N)C(=O)N[C@@H](CCCCN)C(=O)N[C@H](C(=O)N[C@@H](CC(C)C)C(=O)N[C@@H](CCC(N)=O)C(=O)N[C@@H](CCCNC(=N)N)C(=O)N[C@@H](CCCNC(=N)N)C(=O)N[C@@H](CC(N)=O)C(=O)N[C@@H](CC(C)C)C(=O)N[C@@H](CCCCN)C(=O)NCC(=O)N[C@@H](CC(C)C)C(=O)N[C@@H](CC(N)=O)C(=O)N[C@@H](CC(C)C)C(=O)N[C@@H](CC(N)=O)C(=O)N[C@@H](CC(C)C)C(=O)NCCCCCC(=O)NCCCCCC(=O)NCCCCCC(=O)N[C@H](C(=O)NCC(=O)N1CCC[C@H]1C(=O)N[C@@H](CC(C)C)C(=O)N[C@@H](CO)C(=O)N1CCC[C@H]1C(=O)NCC(=O)N1CCC[C@H]1C(=O)N[C@@H](Cc1ccccc1)C(N)=O)[C@@H](C)O)[C@@H](C)O,"Mapk1 (Rattus norvegicus, UniProt P63086)",kinase activity,,"pH 7.4, 27 °C, added: peptide substrate",Ki,2400 ± 1000 nM
